Assay results of several laboratories.
Numbered parts are unrelated; each lists some results of a single study.

Study 1
Target: Prothrombin, mature alpha-thrombin (F2, Homo sapiens, UniProt P00734)
Technique: aptamer microarray, sandwich
Molecule type: DNA with 2'F-ANA
Sample: in vitro
Concentration: 200 nM
Setting: whole 15-mer aptamer, many near background
Added: Cy3 exosite-II aptamer, 400 nM
Reading: higher = stronger binding
`GGTTGGTGTGGTTGG (2'F-ANA at 1 2 3 5 10 13)`: “mean fluorescence intensity” 55 a.u.
Under “mean fluorescence intensity”, `GGTTGGTGTGGTTGG (2'F-ANA at 2 3 4 5 6 8 10)` is recorded as 51 a.u.
`GGTTGGTGTGGTTGG (2'F-ANA at 3 4 8 9 12 13)`: “mean fluorescence intensity” 637 a.u.

Study 2
Target: Sal-like protein 4, full length isoform A (SALL4, Homo sapiens, UniProt Q9UJQ4, residues 1-1053)
UniProt Q9UJQ4, sequence (whole entry, looked up): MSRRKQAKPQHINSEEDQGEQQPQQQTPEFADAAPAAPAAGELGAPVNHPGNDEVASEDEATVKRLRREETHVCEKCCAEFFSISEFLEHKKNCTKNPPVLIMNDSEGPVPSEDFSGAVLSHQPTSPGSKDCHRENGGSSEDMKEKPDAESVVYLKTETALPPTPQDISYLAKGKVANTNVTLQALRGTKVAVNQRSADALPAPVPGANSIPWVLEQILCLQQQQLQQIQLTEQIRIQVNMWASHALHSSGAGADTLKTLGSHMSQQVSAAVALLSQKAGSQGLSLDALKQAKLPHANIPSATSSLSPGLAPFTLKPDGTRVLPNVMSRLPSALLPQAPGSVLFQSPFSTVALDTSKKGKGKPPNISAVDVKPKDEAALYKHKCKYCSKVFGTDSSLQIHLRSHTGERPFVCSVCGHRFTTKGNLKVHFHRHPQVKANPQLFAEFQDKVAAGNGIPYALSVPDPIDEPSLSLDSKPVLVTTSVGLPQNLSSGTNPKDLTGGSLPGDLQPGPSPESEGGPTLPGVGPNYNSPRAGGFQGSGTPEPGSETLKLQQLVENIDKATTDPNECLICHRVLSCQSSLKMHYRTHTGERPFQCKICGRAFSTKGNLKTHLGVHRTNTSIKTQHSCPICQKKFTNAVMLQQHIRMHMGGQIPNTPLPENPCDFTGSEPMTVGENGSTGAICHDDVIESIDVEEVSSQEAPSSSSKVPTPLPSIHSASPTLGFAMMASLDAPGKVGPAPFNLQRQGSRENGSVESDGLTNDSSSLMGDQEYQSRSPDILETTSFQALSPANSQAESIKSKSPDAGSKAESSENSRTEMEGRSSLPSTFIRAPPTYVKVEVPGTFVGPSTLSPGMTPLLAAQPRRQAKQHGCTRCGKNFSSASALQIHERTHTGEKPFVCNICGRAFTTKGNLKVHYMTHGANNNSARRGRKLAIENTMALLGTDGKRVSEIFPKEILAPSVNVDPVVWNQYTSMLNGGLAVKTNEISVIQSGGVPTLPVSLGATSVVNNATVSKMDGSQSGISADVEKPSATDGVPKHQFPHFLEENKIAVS
Technique: universal PBM
Molecule type: double-stranded DNA, one strand shown
Sample: in vitro
Concentration: 600 nM
Setting: 8-mer, flanks averaged, mean of replicates
Reading: higher = stronger binding
With `CATCGGGG` the E-score was -0.205.
`GAAGAGTA` has an E-score of 0.152.
For `CTTGAGTA`, the E-score was 0.0721.
With `ATAGGGAG` the E-score was 0.012.

Study 3
Target: Histone acetyltransferase KAT6A, winged helix 2, GST fusion (KAT6A, Homo sapiens, UniProt Q92794, residues 85-181)
Technique: protein binding microarray
Molecule type: double-stranded DNA, one strand shown
Sample: in vitro
Concentration: not given
Setting: 8-mer, flanks averaged, mean of 2 arrays, mostly near background
Baseline: not given
Reading: higher = stronger binding
Target sequence (chain): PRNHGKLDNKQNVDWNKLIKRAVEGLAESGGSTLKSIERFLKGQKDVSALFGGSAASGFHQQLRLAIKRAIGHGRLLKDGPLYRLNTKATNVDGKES
`AACGAGGG` gave an E-score of 0.0168.
The E-score of `ATGCACAA` is reported as -0.0503.
`GGCCTCTA` gave an E-score of -0.175.
`CGTCGACC` gave an E-score of 0.125.

Mixed results
`PhoQ, residues 284 288 289 292 302 303 SCEHLI` has a fold induction of 12.1 (PhoP, residues 12 14 15 18 19 AGCRL (Escherichia coli, UniProt P23836); Sort-seq, item: YFP reporter; E. coli; PhoQ-PhoP variant library, added: 10 µM Mg2+; baseline: high Mg2+ state, higher = stronger signaling).

For quick reference, copied from above (study 2):
With `CATCGGGG` the E-score was -0.205.
